Results of several laboratories.
Compare with care: the assays were run in different laboratories. Numbers after ± are the reported error.
Genome polyprotein NS3 helicase domain: Genome polyprotein, NS3 helicase domain (Hepatitis C virus genotype 1b, UniProt Q9WMX2)
CDK2 with cyclin A: Cyclin-dependent kinase 2, with cyclin A (CDK2, Homo sapiens, UniProt P24941)

`Oc1ccc(C2NCCc3cc(O)c(O)cc32)cc1O` (centres unmarked) gave an inhibition of 10.3 ± 0.9% (tyrosinase; enzyme activity, inhibitor; 100 µM, with: levodopa).
`O=C(O)CCN1C(=O)C(=Cc2ccc(F)cc2)SC1=S` — result for inhibition: “no inhibition” (PPIA (Homo sapiens, UniProt P62937); isomerase activity, inhibitor; 10 µM, enzyme 5 nM, chymotrypsin-coupled, with: N-succinyl-AAPF-p-nitroanilide).
The inhibition of `Cc1ccc(Cl)c(Nc2ccccc2C(=O)O)c1Cl` is reported as 0% (Genome polyprotein NS3 helicase domain; DNA binding, inhibitor; hepatitis C virus; 100 µM, with: Cy5-dT15 DNA).
The inhibition of `CCN(CC)c1ccc(C2Nc3ccc(C(=O)c4ccccc4)cc3NC3=C2C(=O)CC(C)(C)C3)cc1` (centres unmarked) is reported as 6% (sigma 1 receptor; binding; 10 µM).
`O=C(NO)c1cc(F)cc(OS(=O)(=O)Oc2ccccc2)c1` gave an inhibition of 17% (Histone deacetylase 3, with NCoR2 DAD (HDAC3, Homo sapiens, UniProt O15379); enzyme activity, fluorogenic; 10 µM).
For `CNCC(O)c1ccc(O)c(O)c1.Cl` (racemic), the inhibition was 0% (Genome polyprotein NS3 helicase domain; DNA binding, inhibitor; hepatitis C virus; 100 µM, with: Cy5-dT15 DNA).
`[2H]c1cc(C)c(NC(=O)c2cnc(Nc3cc(N4CCCCC4)nc(C)n3)s2)c(Cl)c1` has an inhibition of under 30% (FGFR2 (Homo sapiens, UniProt P21802); 0.01 µM).
The inhibition of `CC12CC3CC(C)(C1)CC(N)(C3)C2` is reported as 0% (Voltage-gated potassium channel, KQT; KCNQ2(Kv7.2)/KCNQ3(Kv7.3) (KCNQ3/KCNQ2, Homo sapiens, UniProt O43525+O43526); ion current, antagonist, SyncroPatch patch clamp; HEK293; 3 µM).
`CC[C@@H]1[C@H](F)C(=O)N[C@@H]1COc1nccc2cc(C(N)=O)c(OC)cc12` gave an inhibition of 3.2% (WEE1 (Homo sapiens, UniProt P30291); ATP-site probe binding, ActivX profiling; THP-1 cell lysate; 0.2 mM, Lys2 site).
For `C[C@H]1C(=O)/C(=C/c2ccccc2)[C@H]2C[C@@H]1N(Cc1ccccc1)C[C@@]2(C)O`, the inhibition was 0% (OPRK1 (Cavia porcellus, UniProt P41144); binding, radioligand binding; guinea pig brain; 1 µM, with: [3H]U-69,593).
`Cc1c(NS(=O)(=O)c2cccc3nonc23)c(=O)n(-c2ccccc2)n1C` gave a Kd of over 100 µM (CDK2 with cyclin A).
For `Cn1cc(-n2cnc3c(NCc4nc5cc(Cl)c(Cl)cc5[nH]4)nc(N4CCOCC4)nc32)cn1`, the inhibition was 83.9% (Cyclin-dependent kinase 12, with cyclin K (CDK12, Homo sapiens, UniProt Q9NYV4); kinase activity, inhibitor, ADP-Glo; 0.6667 µM).
With `CN/C(=N/CCSCc1nc[nH]c1C)NC#N` the inhibition was 0% (Genome polyprotein NS3 helicase domain; 100 µM).
With `CN1CCN(c2cc(-c3ccncc3)c(-c3ccc4ccccc4c3)nn2)CC1` the inhibition was -1.4% (EDNRB (Homo sapiens, UniProt P24530); antagonist, FLIPR; 10 µM).
With `COc1ccc2c(c1)CN(CCCN1CCN(c3ccccc3OC)CC1)C2=O` the inhibition was 94.7% (DRD3 (Homo sapiens, UniProt P35462); radioligand binding; concentration not given, with: [3H]N-methylspiperone).
With `Nc1c(Br)cc(Br)cc1CN[C@H]1CC[C@H](O)CC1` the inhibition was 24% (Glutamate receptor 2 (Homo sapiens, UniProt P42262); ion current, negative allosteric modulator, SyncroPatch patch clamp; HEK293; 10 µM).
For `O=C(c1ccc(Cl)cc1)N1CCN(c2ccc([N+](=O)[O-])c3ncccc23)CC1`, the inhibition was 0% (Genome polyprotein NS3 helicase domain; DNA binding, inhibitor; hepatitis C virus; 100 µM, with: Cy5-dT15 DNA).
With `COC(=O)c1ccc(NC(=O)CSc2nnc(-c3ccc(NC(C)=O)cc3)n2C)cc1` the Kd was over 100 µM (CDK2 with cyclin A).
`CC(C)(CO)Cc1cc(C(C)(C)C)c(O)c(C(C)(C)C)c1` gave an inhibition of 0% (Genome polyprotein NS3 helicase domain; DNA binding, inhibitor; hepatitis C virus; 100 µM, with: Cy5-dT15 DNA).
`CCNCc1cnn(-c2ccc(-n3ccc(Cl)c(Cl)c3=O)cc2)c1C(F)(F)F`: inhibition “no inhibition” (Trpm8 (Rattus norvegicus, UniProt Q8R455); ion current, inhibitor, whole-cell patch clamp; 10 µM, with: menthol-activated).
